# Measurements from different studies.
# Parts stem from different laboratories: compare values within a part only.

# Set 1 — method: RNA Bind-n-Seq; molecule type: RNA; sample: in vitro; concentration: 365 nM; reference: no-protein control; reading: higher = stronger binding
# Target: RNA binding protein fox-1 homolog 2, RRM domain, GST-SBP tag (RBFOX2, Homo sapiens, UniProt O43251-10, residues 100-194)
# Setting: natural RNA segment, single round, ends assumed
# Constant ends, left off below: GGGAGUUCUACAGUCCGACGAUC … UGGAAUUCUCGGGUGCCAA
# Target sequence (chain): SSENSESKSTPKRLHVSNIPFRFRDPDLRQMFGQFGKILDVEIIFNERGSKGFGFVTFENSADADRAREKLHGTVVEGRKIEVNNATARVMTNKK
Sequence,RBNS enrichment (R)
CAGGCUGACAAAAUGAUUCACACGAAUGUGACAACUCGGGCUCAGUUCACUCUGCUUCCCAACAGUGUAAAUGCAUAGCAGUGUUUACCUGCAUGAGAACUAUGCACUAA,0.724
UGGAUGCCCAGACACACAUCUUUCAGAAAACACAGAAACCUAGCCAGCAGCUGCAGACAUGUUUGGGAAUAUGAGAGCAUGUUCGCAGACCCACCAGGUUCUGUGUCCUA,0.456
UCAUUCUGAAAUUAUUUCAUUUACCUACAGUGAAAUAAUUGUGAACUAAGUAGUCUUUCUGAAAACUGUUGGGUUCUAGGCAUUCCUGAGAAAUUGAAAGUGGCUACCUU,0.312
GGCAGGGGAGUGCUCCACAAGGUGGUUUGCUGGCUUCAGAGCCCUAGAAGCACAAGACAGUGGAGCCAGCGGAGCCGGGACUAGAGGAGUUGGGCAGUCUCAGUUGAGAA,0.624
UGGGAGGAGCCCCUGGACAUGCCUGUCCUGAAAGCGGCUGCCUCCAUUAUCCAUUCCCAAGAUGCCUGAUCAGAAACCAACCAUGAAUGAACCCCUGGCUCCUUCACCAC,0.433
GAAUGUCAGGACUUUAUCAGCAGGGGUAAAACUACCACCUGGCCUAGCCUAAGUAGGAAGUGAAAAGAUAAUUCACCAAACAAUGAUUAAUCAGAUAGAAGUUCUAGUCA,0.283
CCCAUUACUAAUGUAGAAAUGUUAAAUGGUAAAACAUAAUUUGCUAAAAUGACCAGUUUUCAGAUUCACCUGUGCGUGUGCCCCCCACUCCCAUCCCACCCUGUUCUUUC,0.823
AGUGGCUAAGGUUGUUGUUGAUCUUUUUCUCCUUUGUGUGAUCAUCACAGAUGCCAUUUCUGUUUUAUUGAUGAUUAUAUGAGACUUUUAAUACAUAAAUGAACGGGUAC,0.703
UAAUUGCCUACAGAGGGAUUUAUUUUUAUGAUGCUGGAAAUAUGAAAUGUAUUUUAAAAUUUCACUCUGGCAUAUGAUUUAUCUAUCACCAUUACUUUUUUUUAAGUCAC,0.52
UUUUAACUCUUGUCUUCUGUGAGUUUUCCGUCCUCUGUAGUCACGUGCCUGCACACCGUUCUCUCCACCCUGCCUCCUUCCCACAGCAGAAGCAGGGCUCCACCCAGGCC,1.09
CCCGAUGCUCUCCGCCGUGUUCGUGUCCCCAGGCGCCCUCGCUGCAGCCCCGCCCCCGUGGGUCUCUGACUCUGUCGCUUUUCUCUAAGUAAAGAUUUCACGUCCACCGG,0.358
AGCCAUGCAUCUCUGUGGGAAGAUAGAAGAAUCUCAUGCUCUGCAGUUACAUAGGUAGCAAGGGUUUAUUUUUACUUGGGCAAAUUUCAGUGAUAGGCAUUGAGAUCAUG,3.21

# Set 2 — method: protein binding microarray; molecule type: double-stranded DNA, one strand shown; sample: in vitro; concentration: not given; reference: not given; reading: higher = stronger binding
# Target: Histone acetyltransferase KAT6A, winged helix 2, GST fusion (KAT6A, Homo sapiens, UniProt Q92794, residues 85-181)
# Setting: 8-mer, flanks averaged, mean of 2 arrays, mostly near background
# Target sequence (chain): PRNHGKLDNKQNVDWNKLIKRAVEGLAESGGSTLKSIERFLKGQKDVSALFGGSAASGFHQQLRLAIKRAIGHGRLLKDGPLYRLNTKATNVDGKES
Sequence,E-score
CCACCCTA,-0.135
AGCCCTAC,0.000915
AGGACGGA,-0.104
CGGGCGAA,0.139
GATGGTTA,-0.0803
ATAAAAAC,0.124
ATACACGC,-0.0402
ATGCGTGG,-0.0811
CATACACA,-0.141
CAGAGTGA,0.0635
AAGCGATT,-0.0758
GTGGTAAA,0.074
CTTGTGGC,0.0217
ACGCTACA,-0.202
AGCCTTAA,-0.173
CTGATCAA,0.0345
AGCGTACA,-0.0233
CTTATAAG,-0.0144
GAGCTTCC,0.106
TGCTTCAA,0.114
CAGACTTA,-0.254
CGGACACA,-0.00588
CGATTTGA,-0.157
AACGGAAG,-0.0746
AGGGGGGA,-0.0246

# Set 3 — method: protein-binding microarray; molecule type: double-stranded DNA, one strand shown; sample: in vitro; concentration: 250 nM; setting: 60-bp whole probe; together with: salmon DNA 0.4 mg/ml; reference: random background probes; reading: higher = stronger binding; constant ends, left off below: GCCTAGCAC … GTCTTGATTCGCTTGACGCTGCTG
# Target: Interferon regulatory factor 7, full length, phosphomimetic (IRF7, Homo sapiens, UniProt Q92985, residues 1-503, S101K/S471D/S472D/S475D/S476D/S477D/S483D/S484D/S487D)
# Target sequence (chain): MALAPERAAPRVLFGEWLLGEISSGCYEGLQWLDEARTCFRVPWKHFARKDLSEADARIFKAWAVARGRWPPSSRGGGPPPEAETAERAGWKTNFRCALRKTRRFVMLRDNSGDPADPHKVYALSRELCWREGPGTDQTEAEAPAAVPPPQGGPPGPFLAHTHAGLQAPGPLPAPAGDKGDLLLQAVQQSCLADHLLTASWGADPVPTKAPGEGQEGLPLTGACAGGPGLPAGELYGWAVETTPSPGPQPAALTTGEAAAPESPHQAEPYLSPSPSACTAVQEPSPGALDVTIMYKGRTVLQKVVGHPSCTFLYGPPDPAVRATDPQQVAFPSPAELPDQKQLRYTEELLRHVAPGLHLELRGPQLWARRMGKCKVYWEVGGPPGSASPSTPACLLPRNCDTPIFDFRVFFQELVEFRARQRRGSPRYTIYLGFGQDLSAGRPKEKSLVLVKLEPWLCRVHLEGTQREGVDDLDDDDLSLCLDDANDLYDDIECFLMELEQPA
Sequence,log fluorescence
TTAGGTATCGGTTTCGTTTAGTGCTAG,11.3 z-score
ATAGATTTCGGGACTGGATTAGTGCTA,0.314 z-score
CCTAGGGGCGGGGCCAAATGGTGCTAG,1.3 z-score
CAGATTTGGCATATCTATTTGTGCTAG,0.432 z-score
TTAGATCTCAGTGTCGATTAGTGCTAG,-0.0472 z-score
TCAGATGTGGGACTCACACTGTGCTAG,-0.28 z-score
GACGGTATCGGTACTGGGGACGTGCTA,0.123 z-score
GAATTTCCCACTTTCACTTCGTGCTAG,5.66 z-score
TGTCTTCCCCTCTCTTTCCAAGTGCTA,1.75 z-score
GACAGTTTCGGTTTCGGGACGTGCTAG,14.2 z-score
AGGCCTCTGGGATCCCAGTCGGTGCTA,-0.313 z-score
GACGGATTCCTTTTCCTGACGTGCTAG,1.95 z-score
GACGGTCGCCTACTGCTGACGTGCTAG,-0.846 z-score
TTTTTTTTGTATTTTTGATAGTGCTAG,0.582 z-score
GACGAGTTCAGTATCGAGACGTGCTAG,0.445 z-score
TAAGGTATCGGTCTCGGTTAGTGCTAG,2.3 z-score
TCATTTTTTTTTTCTACACTGTGCTAG,1.12 z-score
GACGGTCTCGGTTTCCGGACGTGCTAG,7.52 z-score
TTAGGACTGGGTTTTCGGTTAGTGCTA,1.55 z-score
TAAGATATCGGGACTGGATTAGTGCTA,0.115 z-score
GACGAACTGAGTATCGCGACGTGCTAG,-0.129 z-score
GAAGAACTGAGTATCGAGACGTGCTAG,0.00649 z-score
TCAGCTTTCTCTTTCATACTGTGCTAG,0.808 z-score
GACGGACTGGGTTTCGGGATGTGCTAG,3.09 z-score
TACAATTTGCTTTAGTCATTGTGCTAG,0.0794 z-score

# Set 4 — method: RNA Bind-n-Seq; molecule type: RNA; sample: in vitro; concentration: 1 µM; setting: whole 134-nt RNA, ends assumed; together with: 150 mM KCl; reference: input library; reading: higher = stronger binding
# Target: Ras GTPase-activating protein-binding protein 1, C-terminal RGG region (G3BP1, Homo sapiens, UniProt Q13283)
# UniProt Q13283, sequence (whole entry, looked up): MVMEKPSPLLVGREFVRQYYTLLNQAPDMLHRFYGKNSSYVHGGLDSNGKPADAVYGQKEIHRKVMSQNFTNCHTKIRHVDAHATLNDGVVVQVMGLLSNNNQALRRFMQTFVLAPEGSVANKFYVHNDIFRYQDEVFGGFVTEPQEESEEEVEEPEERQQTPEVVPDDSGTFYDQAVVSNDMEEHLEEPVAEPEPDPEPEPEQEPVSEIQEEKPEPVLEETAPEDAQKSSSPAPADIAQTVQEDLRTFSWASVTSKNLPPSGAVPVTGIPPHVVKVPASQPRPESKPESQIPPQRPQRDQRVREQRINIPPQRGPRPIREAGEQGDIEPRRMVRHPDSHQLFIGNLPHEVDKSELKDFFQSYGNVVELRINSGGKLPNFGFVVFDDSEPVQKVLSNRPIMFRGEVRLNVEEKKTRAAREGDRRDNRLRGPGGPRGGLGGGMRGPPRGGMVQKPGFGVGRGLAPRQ
# Constant ends, left off below: GGGAGUUCUACAGUCCGACGAUC … UGGAAUUCUCGGGUGUCAAGG
Sequence,log2 enrichment
CCUGUGCUACACAUCGUAUGUACCGAAUCGGCCCCCCCGGGCCCCCCCGGGCCCCCCCGGAAAGUAUUAUGUUACGCCGUUCGGAUCUGC,-1.52
CAAGUCCUGUGCUACACAUCGUAUGUACCGAAUCGGGAAAAGGAAAAGGGAAAAGGAAAGUAUUAUGUUACGCCGUUCGGAUCUGCACUU,-2.01
AAGUCCUGUGCUACACAUCGUAUGUACCGAAUCGGUUUUUGGAAAAAGGAAAAAGGAAAGUAUUAUGUUACGCCGUUCGGAUCUGCACUU,-2.08
ACCAUGCAAAAGGGCAUCUUUGGGAAGUGGGGCAAGGGGGGGAUAGGGAGGGGGGUAACACUUUGGGAACAGGUGGUCCCAGGUCGUUUC,-1.11
UGUGCUACACAUCGUAUGUACCGAAUCGGGGAAAAAAAGGGGUUUUUGGGGUUUUUUUGGGGAAAGUAUUAUGUUACGCCGUUCGGAUCU,0.48
UGUAUCCCUGUUUCUUUUCUCCCUACAGAAACAUAUGAGGAUUUUGAUACCAGGAUACUUGAGGUAGGCAUGCAGAAUUAAAUACCUGGU,-0.907
GCCAUGCAGGUGGGCAUCUUUGGGAAGUGGGGCAAGGGGGGGAUAGGGAGGGGGGUAACACUUUGGGAACAGGUGGUCCCAGGUCGUUUC,-1.16
ACCAUGCAGGUGGGCAUCUUUGGGAAGUGGGGCAAGGGGGGGAUAGGGAGGGGGGUAACACUUUGGGAACAAAUGGUCCCAGGUCGUUUC,-0.551
GCAGGAAGUAAAAACAAAUGGAAAUGCUUCGGAUAGUGGCAGGGGUGGGGGUUGCUAAGGAAAGGGUGGGAUCGGAGUGGGUAAAGAGUU,1.71
UCCUGUGCUACACAUCGUAUGUACCGAAUCGGGCCCCCCGGCCCCCCGGGGCCCCCCGGAAAGUAUUAUGUUACGCCGUUCGGAUCUGCA,-0.532
UGGGAGGUGGAUUUUGUUUAUUUUUUUGGCUCAUUUCCAGGGGUGGGAAUUUUUUUUUAAUAUGUGUCAUGAAUAAAGUUGUUUUUGAAA,3.86
CUCAAGUCCUGUGCUACACAUCGUAUGUACCGAAUCGGUUUGGAGGAAAAAGGAAAGUAUUAUGUUACGCCGUUCGGAUCUGCACUUCCA,-1.17
AAGUCCUGUGCUACACAUCGUAUGUACCGAAUCGGGUUUGGGAAAAAGGGUUUGGGAAAGUAUUAUGUUACGCCGUUCGGAUCUGCACUU,2.03
GUCCUGUGCUACACAUCGUAUGUACCGAAUCGGGAAAAAAAGGGUUUGGGAAAAAGGGAAAGUAUUAUGUUACGCCGUUCGGAUCUGCAC,-0.585

# A few entries again (set 3):
Sequence,log fluorescence
GACGAACTGAGTATCGCGACGTGCTAG,-0.129 z-score
CAGATTTGGCATATCTATTTGTGCTAG,0.432 z-score
GACGGTATCGGTACTGGGGACGTGCTA,0.123 z-score
GAAGAACTGAGTATCGAGACGTGCTAG,0.00649 z-score
TGTCTTCCCCTCTCTTTCCAAGTGCTA,1.75 z-score
TTAGGTATCGGTTTCGTTTAGTGCTAG,11.3 z-score
AGGCCTCTGGGATCCCAGTCGGTGCTA,-0.313 z-score
ATAGATTTCGGGACTGGATTAGTGCTA,0.314 z-score
TACAATTTGCTTTAGTCATTGTGCTAG,0.0794 z-score
TTAGATCTCAGTGTCGATTAGTGCTAG,-0.0472 z-score
GACGGTCGCCTACTGCTGACGTGCTAG,-0.846 z-score
TCATTTTTTTTTTCTACACTGTGCTAG,1.12 z-score
